Assay results of several laboratories.
Lines come from different studies, so protocols differ.

SMILES | assay | system | setting | NOAEL
Cc1cc(C)nc(Nc2ncc(C(=O)NCCc3c(C)[nH]c4ccccc34)cn2)c1 |  | female rat | oral, 7 days | 500 mg/kg
COc1ccnc(C(=O)N[C@H]2COC(=O)[C@H](Cc3ccccc3)[C@@H](OC(=O)C(C)C)[C@H](C)OC2=O)c1OCOC(=O)C(C)C | neurotoxicity | rat | 90 day, repeated dose | 732 mg/kg/day
CC(C)CC(=O)OC[C@H]1O[C@@](C#N)(c2ccc3c(N)ncnn23)[C@H](O)[C@@H]1O |  | Sprague-Dawley rat both sexes | oral, respiratory and CNS safety pharmacology | 400 mg/kg/day
CCOC(=O)COc1ncccc1Oc1cc(-n2c(=O)cc(C(F)(F)F)n(C)c2=O)c(F)cc1Cl |  | Crl:CD(SD) rats, male | dietary, 90 days | 50 ppm in diet
C[C@H]1CN(C(=O)CC#N)[C@]12CCN(c1ncnc3[nH]ccc13)C2 |  | rat, female | oral, 6 months, repeated dosing | 10 mg/kg
CC(=O)N[C@H]1CC[C@H](NC(=O)CN2CCN(c3nncc(-c4ccc(C)cc4)n3)CC2)CC1 |  | rats |  | 150 mg/kg/day
Cc1cnc(N2CC3(CCOCC3)C2)c(C(=O)Nc2ccc(C(=O)N3CCc4cc(C(=O)Nc5c(C)cccc5F)sc4-c4ccccc43)cc2)c1 |  | rat | inhalation, 14 days | 15.8 mg/kg/day
C=CC(=O)N1CCCN(C(=O)c2cc(Sc3cnc(NC(=O)C4CC4)s3)c(C)cc2OC)C[C@H]1C |  | Sprague-Dawley rat | oral, 28 days, 28 daily doses, GLP | > 1000 mg/kg/day
CC[C@H](C)[C@H](NC(=O)[C@H](C)NC(=O)[C@H](CCCCN)NC(=O)[C@H](CC(C)C)NC(=O)[C@H](C)NC(=O)[C@@H](NC(=O)[C@H](Cc1c[nH]cn1)NC(=O)[C@H](CC(C)C)NC(=O)[C@@H](NC(=O)[C@@H](NC(=O)[C@H](CCCCN)NC(=O)[C@H](C)NC(=O)[C@H](C)NC(=O)[C@H](CO)NC(=O)[C@H](CCCCN)NC(=O)[C@H](Cc1ccccc1)NC(=O)[C@@H](NC(=O)[C@H](CCCCN)NC(=O)[C@H](CC(C)C)NC(=O)[C@H](Cc1ccccc1)NC(=O)[C@H](CO)NC(=O)[C@H](CCCCN)NC(=O)[C@H](Cc1c[nH]c2ccccc12)NC(=O)[C@H](CCCCN)NC(C)=O)[C@@H](C)O)[C@@H](C)O)C(C)C)[C@@H](C)O)C(=O)N[C@@H](CO)C(=O)N[C@@H](CO)C(N)=O |  | Sprague-Dawley rat | transdermal, 30 days, once daily | 1.5 mg/cm2
Cn1nccc1[C@]1(CNC(=O)c2ccc(F)c(F)c2-c2ccc(C(F)(F)F)cc2)NC(=O)NC1=O |  | rat | oral, two weeks, daily gavage | 50 mg/kg body weight

Some of these lines once more:
SMILES | assay | system | setting | NOAEL
CC(C)CC(=O)OC[C@H]1O[C@@](C#N)(c2ccc3c(N)ncnn23)[C@H](O)[C@@H]1O |  | Sprague-Dawley rat both sexes | oral, respiratory and CNS safety pharmacology | 400 mg/kg/day
